Measured values of several laboratories.
Each numbered part is a random draw from the data of one study; scales do not carry over between parts.
Sequence of UniProt Q5VT25 (whole entry, looked up): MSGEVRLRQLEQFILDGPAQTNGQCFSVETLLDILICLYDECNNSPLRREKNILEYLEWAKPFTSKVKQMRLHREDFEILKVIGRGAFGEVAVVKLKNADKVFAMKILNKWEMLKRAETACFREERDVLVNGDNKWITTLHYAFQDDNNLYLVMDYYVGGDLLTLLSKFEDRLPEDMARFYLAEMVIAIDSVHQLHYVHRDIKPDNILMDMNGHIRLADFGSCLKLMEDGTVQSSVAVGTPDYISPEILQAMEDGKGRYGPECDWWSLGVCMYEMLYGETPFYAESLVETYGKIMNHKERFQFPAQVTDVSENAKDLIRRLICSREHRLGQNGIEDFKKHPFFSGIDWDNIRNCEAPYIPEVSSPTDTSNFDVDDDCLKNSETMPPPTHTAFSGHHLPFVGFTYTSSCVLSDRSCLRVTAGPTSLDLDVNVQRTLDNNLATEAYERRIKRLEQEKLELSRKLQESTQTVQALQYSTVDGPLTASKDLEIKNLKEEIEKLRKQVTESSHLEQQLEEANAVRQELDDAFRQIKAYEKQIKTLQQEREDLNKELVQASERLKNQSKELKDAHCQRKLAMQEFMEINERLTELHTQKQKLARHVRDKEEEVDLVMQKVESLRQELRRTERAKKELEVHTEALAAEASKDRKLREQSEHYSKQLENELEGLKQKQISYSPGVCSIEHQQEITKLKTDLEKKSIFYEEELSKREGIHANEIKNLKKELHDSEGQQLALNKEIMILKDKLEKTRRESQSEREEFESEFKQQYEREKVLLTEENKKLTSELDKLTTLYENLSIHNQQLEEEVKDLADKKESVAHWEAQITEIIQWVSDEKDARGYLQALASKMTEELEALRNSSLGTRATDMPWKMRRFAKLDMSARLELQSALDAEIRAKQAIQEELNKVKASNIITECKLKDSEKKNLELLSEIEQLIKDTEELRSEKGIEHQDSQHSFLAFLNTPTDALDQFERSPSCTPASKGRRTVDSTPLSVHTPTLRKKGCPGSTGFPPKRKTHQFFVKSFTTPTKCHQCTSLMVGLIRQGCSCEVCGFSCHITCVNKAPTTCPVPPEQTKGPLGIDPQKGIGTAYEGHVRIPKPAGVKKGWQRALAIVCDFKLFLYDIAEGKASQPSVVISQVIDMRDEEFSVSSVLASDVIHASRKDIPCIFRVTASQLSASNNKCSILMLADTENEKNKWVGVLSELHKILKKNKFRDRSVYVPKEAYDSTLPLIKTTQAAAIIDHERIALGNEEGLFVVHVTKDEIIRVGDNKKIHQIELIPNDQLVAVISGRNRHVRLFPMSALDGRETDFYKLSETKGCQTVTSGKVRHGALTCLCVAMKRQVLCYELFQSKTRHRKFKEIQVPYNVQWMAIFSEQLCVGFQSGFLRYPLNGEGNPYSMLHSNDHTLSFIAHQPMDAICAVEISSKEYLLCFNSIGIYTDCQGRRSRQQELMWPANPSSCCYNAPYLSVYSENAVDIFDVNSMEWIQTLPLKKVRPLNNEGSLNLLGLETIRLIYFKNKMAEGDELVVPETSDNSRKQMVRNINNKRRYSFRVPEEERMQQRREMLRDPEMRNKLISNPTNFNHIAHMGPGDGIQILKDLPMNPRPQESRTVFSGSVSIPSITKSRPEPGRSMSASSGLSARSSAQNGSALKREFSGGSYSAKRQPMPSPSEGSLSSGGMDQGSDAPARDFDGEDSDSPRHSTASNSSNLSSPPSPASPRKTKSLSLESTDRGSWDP
Sequence of UniProt Q9UM73 (whole entry, unmodified, looked up): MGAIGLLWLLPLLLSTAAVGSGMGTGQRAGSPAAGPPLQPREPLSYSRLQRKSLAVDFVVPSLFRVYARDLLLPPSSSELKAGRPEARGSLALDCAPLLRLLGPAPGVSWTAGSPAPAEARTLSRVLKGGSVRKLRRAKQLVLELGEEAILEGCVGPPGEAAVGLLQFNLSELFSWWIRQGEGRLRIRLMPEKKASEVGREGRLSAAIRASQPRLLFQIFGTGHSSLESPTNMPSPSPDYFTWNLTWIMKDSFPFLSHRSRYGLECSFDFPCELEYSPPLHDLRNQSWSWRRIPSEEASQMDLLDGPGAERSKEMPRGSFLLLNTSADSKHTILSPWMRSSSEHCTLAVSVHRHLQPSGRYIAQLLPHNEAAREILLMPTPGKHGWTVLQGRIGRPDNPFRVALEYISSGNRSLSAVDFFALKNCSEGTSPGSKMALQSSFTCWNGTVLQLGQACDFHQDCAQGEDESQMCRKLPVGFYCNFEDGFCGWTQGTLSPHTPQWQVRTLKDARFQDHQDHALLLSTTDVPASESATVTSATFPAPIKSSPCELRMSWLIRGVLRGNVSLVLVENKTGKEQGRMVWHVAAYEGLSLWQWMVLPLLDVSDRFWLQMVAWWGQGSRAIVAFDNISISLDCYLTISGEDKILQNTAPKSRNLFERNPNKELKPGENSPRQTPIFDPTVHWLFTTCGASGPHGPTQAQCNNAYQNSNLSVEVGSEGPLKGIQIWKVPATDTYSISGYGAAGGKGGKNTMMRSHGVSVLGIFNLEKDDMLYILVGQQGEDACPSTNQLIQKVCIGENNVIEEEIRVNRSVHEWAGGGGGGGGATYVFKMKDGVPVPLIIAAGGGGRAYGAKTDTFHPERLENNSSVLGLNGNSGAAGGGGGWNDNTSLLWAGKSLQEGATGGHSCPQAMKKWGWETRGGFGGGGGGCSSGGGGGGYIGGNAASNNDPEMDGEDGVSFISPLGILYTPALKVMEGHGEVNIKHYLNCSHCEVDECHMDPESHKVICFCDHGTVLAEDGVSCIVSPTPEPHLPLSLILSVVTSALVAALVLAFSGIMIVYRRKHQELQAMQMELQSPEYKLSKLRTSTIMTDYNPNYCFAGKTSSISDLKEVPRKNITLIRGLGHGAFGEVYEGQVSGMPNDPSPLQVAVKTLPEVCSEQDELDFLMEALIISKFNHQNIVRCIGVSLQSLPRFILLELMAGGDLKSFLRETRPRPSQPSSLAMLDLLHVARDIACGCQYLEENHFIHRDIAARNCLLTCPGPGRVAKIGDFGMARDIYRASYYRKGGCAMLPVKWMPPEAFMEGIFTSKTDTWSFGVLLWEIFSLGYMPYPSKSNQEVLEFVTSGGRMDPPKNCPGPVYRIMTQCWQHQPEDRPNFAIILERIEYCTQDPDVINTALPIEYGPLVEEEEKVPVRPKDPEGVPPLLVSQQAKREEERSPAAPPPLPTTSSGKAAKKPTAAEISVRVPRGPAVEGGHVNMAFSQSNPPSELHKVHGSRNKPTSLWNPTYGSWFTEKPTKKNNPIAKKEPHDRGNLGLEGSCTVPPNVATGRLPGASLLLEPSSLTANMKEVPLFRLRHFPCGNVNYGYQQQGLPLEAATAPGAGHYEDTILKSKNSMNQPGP
Sequence of UniProt O95835 (whole entry, looked up): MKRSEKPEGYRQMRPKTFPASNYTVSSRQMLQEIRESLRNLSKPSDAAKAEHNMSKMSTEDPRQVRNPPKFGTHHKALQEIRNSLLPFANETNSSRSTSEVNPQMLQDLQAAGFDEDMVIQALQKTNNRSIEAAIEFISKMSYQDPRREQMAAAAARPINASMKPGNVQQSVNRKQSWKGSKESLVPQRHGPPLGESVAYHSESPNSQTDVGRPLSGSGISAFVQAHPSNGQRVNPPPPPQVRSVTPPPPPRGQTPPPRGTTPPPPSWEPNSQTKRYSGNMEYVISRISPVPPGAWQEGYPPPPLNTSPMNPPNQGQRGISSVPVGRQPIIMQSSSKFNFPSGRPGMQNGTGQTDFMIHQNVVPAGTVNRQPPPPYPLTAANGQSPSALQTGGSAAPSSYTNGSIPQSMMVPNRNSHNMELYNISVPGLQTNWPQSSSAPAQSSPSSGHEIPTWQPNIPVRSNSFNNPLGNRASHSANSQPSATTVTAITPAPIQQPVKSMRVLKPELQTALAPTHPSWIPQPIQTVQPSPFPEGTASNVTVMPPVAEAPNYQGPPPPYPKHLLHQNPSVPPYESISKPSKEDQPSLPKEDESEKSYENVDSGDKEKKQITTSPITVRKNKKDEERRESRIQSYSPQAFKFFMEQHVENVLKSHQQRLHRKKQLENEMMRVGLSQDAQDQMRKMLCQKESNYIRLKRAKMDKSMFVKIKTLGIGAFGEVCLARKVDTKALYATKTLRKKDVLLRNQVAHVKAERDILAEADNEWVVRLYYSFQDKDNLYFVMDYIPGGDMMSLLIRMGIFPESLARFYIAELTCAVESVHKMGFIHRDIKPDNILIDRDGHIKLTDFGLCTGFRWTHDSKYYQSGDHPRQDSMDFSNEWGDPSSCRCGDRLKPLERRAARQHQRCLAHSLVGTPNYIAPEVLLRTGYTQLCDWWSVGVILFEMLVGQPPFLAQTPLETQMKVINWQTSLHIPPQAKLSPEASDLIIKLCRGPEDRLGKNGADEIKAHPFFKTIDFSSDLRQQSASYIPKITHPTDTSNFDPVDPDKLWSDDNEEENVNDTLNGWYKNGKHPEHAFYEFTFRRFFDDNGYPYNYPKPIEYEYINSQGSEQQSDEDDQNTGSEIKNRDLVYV
Sequence of UniProt P11802 (whole entry, looked up): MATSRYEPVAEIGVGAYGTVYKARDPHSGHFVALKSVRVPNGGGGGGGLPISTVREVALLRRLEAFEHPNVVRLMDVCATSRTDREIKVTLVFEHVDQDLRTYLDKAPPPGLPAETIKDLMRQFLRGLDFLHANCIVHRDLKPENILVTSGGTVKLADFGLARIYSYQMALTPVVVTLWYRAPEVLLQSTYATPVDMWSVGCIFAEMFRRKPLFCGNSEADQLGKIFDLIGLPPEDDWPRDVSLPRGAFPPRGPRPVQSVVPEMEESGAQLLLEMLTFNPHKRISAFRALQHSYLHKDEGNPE
Sequence of UniProt Q00534 (whole entry, looked up): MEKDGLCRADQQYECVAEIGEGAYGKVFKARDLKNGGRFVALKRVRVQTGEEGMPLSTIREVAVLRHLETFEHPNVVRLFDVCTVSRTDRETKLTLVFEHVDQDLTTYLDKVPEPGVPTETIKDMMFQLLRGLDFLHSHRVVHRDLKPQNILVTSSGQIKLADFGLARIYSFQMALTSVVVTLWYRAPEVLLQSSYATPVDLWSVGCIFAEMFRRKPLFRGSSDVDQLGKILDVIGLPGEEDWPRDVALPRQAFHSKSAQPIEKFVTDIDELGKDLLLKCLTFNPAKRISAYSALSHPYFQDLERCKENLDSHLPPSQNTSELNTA

Study 1 — technique: aptamer microarray, sandwich; molecule type: DNA with 2'F-ANA; sample: in vitro; tested at: 200 nM; together with: Cy3 exosite-II aptamer, 400 nM; reading: higher = stronger binding; sequence: GGTTGGTGTGGTTGG
Target: Prothrombin, mature alpha-thrombin (F2, Homo sapiens, UniProt P00734)
Notes: whole 15-mer aptamer, many near background
Modification | mean fluorescence intensity
2'F-ANA at 1 2 5 7 8 10 11 13 14 | 45.8 a.u.
2'F-ANA at 4 5 6 7 10 11 12 14 15 | 46.2 a.u.
2'F-ANA at 2 5 7 11 15 | 76.8 a.u.
2'F-ANA at 1 9 10 14 | 48.1 a.u.
2'F-ANA at 1 2 8 9 14 | 53.5 a.u.
2'F-ANA at 1 3 4 5 6 8 9 12 15 | 115 a.u.
2'F-ANA at 1 2 3 4 5 9 10 11 15 | 51.1 a.u.
2'F-ANA at 1 2 3 4 6 8 9 10 13 14 | 59.1 a.u.

Study 2 — host: human; sample: microsomes or S9; tested at: 2 µM; time: 0.5 h
SMILES | remaining compound [%]
CCOc1ccc2[nH]c3c(=O)n(CCN(C(C)C)C(C)C)cnc3c2c1 | 5.29
COC(=O)c1nc(C2CC(C(C)(C)C)=NO2)cc(N)c1Cl (centres unmarked) | 50.3
COc1cc2c(Nc3cc(Cl)cc(Cl)c3)ncnc2cc1O | 84.5

Study 3 — tested at: 0.1 µM
Compound: Cc1cc(C)c(-n2ccn3nc(-c4cccnc4)cc23)cc1NC(=O)c1cc(C#N)cc(S(F)(F)(F)(F)F)c1
target | test | how to read | remaining binding
Ribosomal protein S6 kinase alpha-3, N-terminal kinase domain (RPS6KA3, Homo sapiens, UniProt P51812) | cell-free assay, competition with immobilised ligand |  | 84.4%
MAPK10 (Homo sapiens, UniProt P53779) | cell-free assay, competition with immobilised ligand |  | 100%
PIK3CA (Homo sapiens, UniProt P42336, E545A) | cell-free assay, competition with immobilised ligand |  | 73%
CDK13 (Homo sapiens, UniProt Q14004) | cell-free assay, competition with immobilised ligand |  | 59%
LATS1 (Homo sapiens, UniProt O95835) | cell-free assay, competition with immobilised ligand |  | 83.9%
Cyclin-dependent kinase 4, with cyclin D1 (CDK4, Homo sapiens, UniProt P11802) | cell-free assay, competition with immobilised ligand |  | 89.4%
ALK (Homo sapiens, UniProt Q9UM73, C1156Y) | cell-free assay, competition with immobilised ligand |  | 76.6%
CHUK (Homo sapiens, UniProt O15111) | cell-free assay, competition with immobilised ligand |  | 100%
FLT1 (Homo sapiens, UniProt P17948) | cell-free assay, competition with immobilised ligand |  | 91.5%
NTRK3 (Homo sapiens, UniProt Q16288) | cell-free assay, competition with immobilised ligand |  | 60.4%
MTOR (Homo sapiens, UniProt P42345) | cell-free assay, competition with immobilised ligand |  | 70.1%
CDC42BPA (Homo sapiens, UniProt Q5VT25) | cell-free assay, competition with immobilised ligand |  | 100%
FLT3 (Homo sapiens, UniProt P36888, D835H) | cell-free assay, competition with immobilised ligand |  | 87.8%
STK10 (Homo sapiens, UniProt O94804) | binder, KINOMEscan competition binding | reference: DMSO | 1.8%
EGFR (Homo sapiens, UniProt P00533, L858R/T790M) | cell-free assay, competition with immobilised ligand |  | 100%
RAF1 (Homo sapiens, UniProt P04049) | cell-free assay, competition with immobilised ligand |  | 83.8%

Study 4 — SMILES: CCC(=O)Nc1ccc2ncnc(Nc3cccc(Br)c3)c2c1; observed: enzyme activity; mode: inhibitor; tested at: 0.5 µM; reference: control
target | remaining activity [%]
Cyclin-dependent kinase 6, with cyclin D3 (CDK6, Homo sapiens, UniProt Q00534) | 94.8
EPHB4 (Homo sapiens, UniProt P54760) | 93.4
RPS6KA6 (Homo sapiens, UniProt Q9UK32) | 90.6
MAPKAPK3 (Homo sapiens, UniProt Q16644) | 90.2
PHKG1 (Homo sapiens, UniProt Q16816) | 92.4
TSSK2 (Homo sapiens, UniProt Q96PF2) | 82.8

Further values, each from its own experiment — cell line: mouse MPNST tumor cells; technique: high-content immunofluorescence imaging; measured: nuclear SOX9; tested at: 10 µM; time: 12 h; notes: mean of 2 replicates; reference: DMSO control; reading: higher = more nuclear SOX9
SMILES | nuclear SOX9 intensity
CN1C2CCCC1CC(NC(=O)c1nn(C)c3ccccc13)C2 (centres unmarked) | 103 % of DMSO
COC(=O)C(Cc1ccc(OCCn2c(=O)sc3cc(C(=O)c4ccccc4)ccc32)cc1)C(=O)OC | 130 % of DMSO

For quick reference, copied from above (study 3):
target | test | how to read | remaining binding
MAPK10 (Homo sapiens, UniProt P53779) | cell-free assay, competition with immobilised ligand |  | 100%
Cyclin-dependent kinase 4, with cyclin D1 (CDK4, Homo sapiens, UniProt P11802) | cell-free assay, competition with immobilised ligand |  | 89.4%
NTRK3 (Homo sapiens, UniProt Q16288) | cell-free assay, competition with immobilised ligand |  | 60.4%
EGFR (Homo sapiens, UniProt P00533, L858R/T790M) | cell-free assay, competition with immobilised ligand |  | 100%
CDC42BPA (Homo sapiens, UniProt Q5VT25) | cell-free assay, competition with immobilised ligand |  | 100%
